Experimental data from different studies.
Each numbered part is a random draw from the data of one study; scales do not carry over between parts. Changes are numbered by the printed parent chain.

Series 1
Target: Prothrombin, mature alpha-thrombin (F2, Homo sapiens, UniProt P00734)
Method: aptamer microarray, sandwich
Molecule type: DNA with 2'F-ANA
Sample: in vitro
Tested at: 200 nM
Setting: whole 15-mer aptamer, many near background
Together with: Cy3 exosite-II aptamer, 400 nM
Reading: higher = stronger binding
Sequence: GGTTGGTGTGGTTGG
Modification	mean fluorescence intensity [a.u.]
2'F-ANA at 2 10 13 15	115
2'F-ANA at 1 2 5 6 7 9 11 13 14	51.1
2'F-ANA at 1 3 9 11 14	102
2'F-ANA at 7 9 10 11 13	150
2'F-ANA at 1 3 4 7 9 15	198
2'F-ANA at 4 5 6 7 11 13 14	43.8
2'F-ANA at 1 2 3 5 6 8 9 11 14 15	47.7
2'F-ANA at 1 2 3 4 5 9 10 15	48.6
2'F-ANA at 3 7 8 9 11 12 14 15	704
2'F-ANA at 1 4 5 6 8 15	57
2'F-ANA at 1 2 3 5 7 9 10 12 13 14	49.5
2'F-ANA at 1 2 3 7 9 11 13 14	59.9
2'F-ANA at 1 2 5 6 11 14 15	51.8
2'F-ANA at 1 5 6 7 8 10 11 12 15	50
2'F-ANA at 3 5 12 13	208

Series 2
Target: CCNA2, cyclin fold, Cln2 fusion (human)
Method: yeast growth competition, sequencing
Sample: yeast
Setting: strong parent motif
Relative to: not given
Reading: higher = stronger binding
Starting sequence: CDC25A docking peptide (human); PPHRRRLLFACSP
Change	normalised enrichment score
R4E	0.675
L8V	4.05
R4M	0.881
R4P	1.59
R5F	2.14
S12K	1.53
P1A	2.15
F9S	1.32
H3C	6.2
F9K	1.61
H3V	5.55
S12F	1.7
P13H	2.09

Series 3
Target: Histone acetyltransferase KAT6A, winged helix 2, GST fusion (KAT6A, Homo sapiens, UniProt Q92794, residues 85-181)
Method: protein binding microarray
Molecule type: double-stranded DNA, one strand shown
Sample: in vitro
Tested at: not given
Setting: 8-mer, flanks averaged, mean of 2 arrays, mostly near background
Relative to: not given
Reading: higher = stronger binding
Residues (chain): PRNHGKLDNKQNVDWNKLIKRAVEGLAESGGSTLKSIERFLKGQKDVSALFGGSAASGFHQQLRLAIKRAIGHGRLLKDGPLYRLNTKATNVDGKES
Sequence	E-score
CCTTTGGC	-0.000225
CGAGATTA	0.164
AAGGGCCA	-0.0564
CGCGCGCA	0.195
GTCTAAAA	-0.108
CCAGAATA	-0.0658
GATGGAGC	0.0793
CGAGCACC	0.05
AGTGGATG	-0.0411
CCAACGGA	0.0878
GAGTGGGC	-0.0502
AGCTATAC	-0.0315
CCAGGCTC	0.116

Further values, each from its own experiment
Substance	target	test	test system	setting	scale	endpoint	result
PhoQ, residues 284 288 289 292 302 303 SIHLQL	PhoP, residues 12 14 15 18 19 AQALL (Escherichia coli, UniProt P23836)	Sort-seq, measured: YFP reporter	E. coli	PhoQ-PhoP variant library, together with: 10 µM Mg2+	relative to: high Mg2+ state, higher = stronger signaling	fold induction	10.3

Excerpt of the above (series 1):
Modification	mean fluorescence intensity [a.u.]
2'F-ANA at 1 3 9 11 14	102
2'F-ANA at 7 9 10 11 13	150
2'F-ANA at 1 3 4 7 9 15	198
